Measurements pooled from the literature.
Each line is one published result; not all experiments were run side by side. Several values in a cell are separate wells, animals, samples, runs or records. ± gives the spread as reported.
Chain of UniProt Q92945 (whole entry, looked up): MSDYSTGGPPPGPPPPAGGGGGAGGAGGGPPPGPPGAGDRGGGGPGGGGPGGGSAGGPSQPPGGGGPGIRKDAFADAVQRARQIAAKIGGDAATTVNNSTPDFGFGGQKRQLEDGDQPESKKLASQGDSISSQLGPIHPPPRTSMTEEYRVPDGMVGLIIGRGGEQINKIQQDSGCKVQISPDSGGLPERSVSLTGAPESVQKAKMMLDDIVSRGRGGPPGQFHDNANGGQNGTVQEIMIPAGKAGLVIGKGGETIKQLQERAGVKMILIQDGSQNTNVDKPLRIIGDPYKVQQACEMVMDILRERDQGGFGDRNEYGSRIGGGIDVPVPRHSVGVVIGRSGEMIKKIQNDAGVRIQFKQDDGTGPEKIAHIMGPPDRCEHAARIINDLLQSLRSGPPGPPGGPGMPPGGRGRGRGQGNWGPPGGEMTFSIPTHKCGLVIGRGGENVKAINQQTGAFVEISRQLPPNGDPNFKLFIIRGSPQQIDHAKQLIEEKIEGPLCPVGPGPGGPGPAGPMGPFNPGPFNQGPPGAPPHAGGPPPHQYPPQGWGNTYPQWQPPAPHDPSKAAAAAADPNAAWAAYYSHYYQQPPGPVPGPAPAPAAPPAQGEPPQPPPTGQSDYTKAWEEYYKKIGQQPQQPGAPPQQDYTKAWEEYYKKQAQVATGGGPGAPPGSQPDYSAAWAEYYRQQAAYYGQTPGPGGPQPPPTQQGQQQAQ
Chain of UniProt Q2TAA2 (whole entry, looked up): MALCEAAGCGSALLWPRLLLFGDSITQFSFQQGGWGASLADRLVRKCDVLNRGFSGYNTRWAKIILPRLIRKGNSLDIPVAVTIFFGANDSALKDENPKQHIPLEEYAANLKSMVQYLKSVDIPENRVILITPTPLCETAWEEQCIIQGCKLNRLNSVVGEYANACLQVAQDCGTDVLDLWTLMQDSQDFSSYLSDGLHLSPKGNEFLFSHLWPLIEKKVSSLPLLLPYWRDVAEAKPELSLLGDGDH
Chain of UniProt P25025 (whole entry, looked up): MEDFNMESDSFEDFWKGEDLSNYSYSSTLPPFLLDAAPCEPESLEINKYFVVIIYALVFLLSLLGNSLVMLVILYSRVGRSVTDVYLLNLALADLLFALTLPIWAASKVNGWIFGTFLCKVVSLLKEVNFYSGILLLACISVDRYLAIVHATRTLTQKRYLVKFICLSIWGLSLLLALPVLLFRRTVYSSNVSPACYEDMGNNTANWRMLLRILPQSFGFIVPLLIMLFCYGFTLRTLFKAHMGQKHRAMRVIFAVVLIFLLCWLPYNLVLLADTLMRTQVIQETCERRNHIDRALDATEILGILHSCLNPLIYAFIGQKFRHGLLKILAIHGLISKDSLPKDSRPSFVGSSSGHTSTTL
Chain of UniProt Q04912 (whole entry, looked up): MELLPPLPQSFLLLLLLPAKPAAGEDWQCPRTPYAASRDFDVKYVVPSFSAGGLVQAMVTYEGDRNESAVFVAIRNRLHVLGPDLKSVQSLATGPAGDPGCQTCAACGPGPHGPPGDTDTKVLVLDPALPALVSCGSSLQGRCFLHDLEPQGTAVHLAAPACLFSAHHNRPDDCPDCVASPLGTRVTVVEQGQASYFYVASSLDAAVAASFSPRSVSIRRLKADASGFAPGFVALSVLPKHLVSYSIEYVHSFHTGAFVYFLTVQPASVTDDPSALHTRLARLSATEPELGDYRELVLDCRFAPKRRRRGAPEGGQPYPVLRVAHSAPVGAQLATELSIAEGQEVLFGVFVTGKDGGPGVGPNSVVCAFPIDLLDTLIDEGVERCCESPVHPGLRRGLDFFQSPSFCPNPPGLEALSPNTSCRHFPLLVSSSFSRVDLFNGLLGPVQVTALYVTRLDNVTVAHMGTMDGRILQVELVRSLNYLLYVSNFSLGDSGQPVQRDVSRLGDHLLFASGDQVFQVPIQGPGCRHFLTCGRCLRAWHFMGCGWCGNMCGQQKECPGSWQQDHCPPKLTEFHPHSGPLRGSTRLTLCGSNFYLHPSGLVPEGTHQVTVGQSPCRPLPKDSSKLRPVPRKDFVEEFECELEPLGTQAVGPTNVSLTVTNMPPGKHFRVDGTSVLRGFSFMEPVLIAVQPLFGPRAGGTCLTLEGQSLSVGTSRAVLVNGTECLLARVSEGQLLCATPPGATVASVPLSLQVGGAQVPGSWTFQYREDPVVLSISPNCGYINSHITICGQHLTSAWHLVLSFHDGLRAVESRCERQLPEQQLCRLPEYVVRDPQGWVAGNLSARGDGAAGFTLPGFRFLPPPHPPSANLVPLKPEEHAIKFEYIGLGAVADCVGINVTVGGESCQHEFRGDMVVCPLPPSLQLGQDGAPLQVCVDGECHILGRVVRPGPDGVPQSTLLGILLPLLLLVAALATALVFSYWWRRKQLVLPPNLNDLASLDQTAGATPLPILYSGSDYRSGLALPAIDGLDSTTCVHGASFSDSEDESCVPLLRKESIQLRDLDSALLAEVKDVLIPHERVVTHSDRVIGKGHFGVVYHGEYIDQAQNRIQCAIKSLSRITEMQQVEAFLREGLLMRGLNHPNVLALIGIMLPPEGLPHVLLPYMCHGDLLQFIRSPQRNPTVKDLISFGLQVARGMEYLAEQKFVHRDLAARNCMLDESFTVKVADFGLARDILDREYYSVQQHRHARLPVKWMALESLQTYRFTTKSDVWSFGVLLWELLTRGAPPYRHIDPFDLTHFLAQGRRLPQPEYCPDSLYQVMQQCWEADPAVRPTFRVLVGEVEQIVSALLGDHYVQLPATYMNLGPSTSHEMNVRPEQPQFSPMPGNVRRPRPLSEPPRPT

`CC(C)=CCC/C(C)=C/C=O` has an IC50 of over 1000 µM (pH gradient; Escherichia coli inverted membrane vesicles).
`COc1ncc(-c2nc3c(n2C(C)C)[C@H](c2ccc(Cl)cc2)N(c2cc(Cl)cn(C)c2=O)C3=O)c(OC)n1` — result for “best overall response”: 66.7% (antileukemic activity, refers to: treatment failure, resistant disease; human, acute myeloid leukaemia; 150 mg, high-dose, other doses).
The steatosis area of `C[C@H]1O[C@@H](O[C@H]2CC[C@@]3(C)[C@@H](CC[C@]4(C)[C@@H]3C=C[C@]35OC[C@@]6(CCC(C)(C)C[C@H]63)[C@@H](O)C[C@]54C)[C@]2(C)CO)[C@H](O)[C@@H](O[C@@H]2O[C@H](CO)[C@@H](O)[C@H](O)[C@H]2O)[C@H]1O` is reported as 11.8% and 11.6% and 13.1% and 13.6% and 11.5% and 9.34% (H&E staining; hepatic SIRT1 knockdown mice, no ethanol, liver; dose not given, AAV8-TBG-shRNA, high dose).
`C[C@H](N)Cn1ncc2ccc3c(c21)CCCO3.Cl`: “maximum DOM-lever responding” 99% (drug discrimination; rat trained on DOM; i.p., 0.3 mg/kg).
For `O=C(O)C[C@H](NC(=O)[C@H](CC(=O)O)NC(=O)[C@H](CC(=O)O)NC(=O)[C@H](CC(=O)O)NC(=O)[C@H](CC(=O)O)NC(=O)[C@H](CC(=O)O)NC(=O)[C@H](CC(=O)O)NC(=O)[C@H](CC(=O)O)NC(=O)[C@H](CC(=O)O)NC(=O)[C@H](CC(=O)O)NC(=O)[C@H](CC(=O)O)NC(=O)[C@H](CCCCNC(=O)c1ccc(C(=O)NCCOCCOB2BBBBBB3BBBB3B2)cc1)NC(=O)CN1CCN(CC(=O)O)CCN(CC(=O)O)CCN(CC(=O)O)CC1)C(=O)O` [gallium-67 labelled], the tissue uptake was 1.36 %ID/g (gamma counting; ddY mouse, male, 6 weeks old, pancreas; intravenous, 37 kBq, 10 min).
`CCCCC1(CCCC)CN(c2ccccc2)c2cc(SC)c(OCC(=O)N[C@@H](C(=O)NCC(=O)O)c3ccccc3)cc2S(=O)(=O)C1` has a serum HDL-C of 55.2 mg/dL (refers to: HDL cholesterol; human, serum; 2.5 mg once daily, day 5).
`COc1cc2c(Oc3ccc4[nH]c(C)cc4c3F)ccnc2cc1OCC1(N)CC1` — result for “grade 1 or 2 Triglyceride elevation”: 18.2% (paediatric recurrent refractory sarcoma; 12 mg).
For `Cc1cn(-c2cc(NC(=O)c3ccc(C)c(Nc4nccc(-c5cccnc5)n4)c3)cc(C(F)(F)F)c2)cn1`, “ADAS-Cog score change” read 4.1 (human patients; dose not given, 6 months vs baseline, within treated group; baseline: baseline, direction not given).
For `CC[C@H](C)[C@H](NC(=O)[C@H](Cc1ccccc1)NC(=O)[C@H](CCC(=O)O)NC(=O)[C@H](CCCNC(=N)N)NC(=O)[C@H](C)NC(=O)[C@H](C)NC(=O)[C@H](CCC(N)=O)NC(=O)[C@H](CCC(=O)O)NC(=O)[C@H](CCC(=O)O)NC(=O)[C@H](CC(C)C)NC(=O)[C@H](Cc1ccc(O)cc1)NC(=O)[C@H](CO)NC(=O)[C@H](CO)NC(=O)[C@@H](NC(=O)[C@H](CC(=O)O)NC(=O)[C@H](CO)NC(=O)[C@@H](NC(=O)[C@H](Cc1ccccc1)NC(=O)[C@@H](NC(=O)CNC(=O)[C@H](CCC(=O)O)NC(=O)[C@H](C)NC(=O)CCc1c[nH]cn1)[C@@H](C)O)[C@@H](C)O)C(C)C)C(=O)N[C@@H](C)C(=O)N[C@@H](Cc1c[nH]c2ccccc12)C(=O)N[C@@H](CC(C)C)C(=O)N[C@H](C(=O)N[C@@H](CCCNC(=N)N)C(=O)NCC(=O)N[C@@H](CCCNC(=N)N)C(=O)N[C@@H](CCCCNC(=O)COCCOCCNC(=O)COCCOCCNC(=O)CC[C@H](NC(=O)CCCCCCCCCCCCCCCCC(=O)O)C(=O)O)C(=O)NCC(=O)NCC(=O)N[C@@H](CO)C(=O)N[C@@H](CCCCNc1c(NCCCCCN(O)C(=O)CCC(=O)NCCCCCN(O)C(=O)CCC(=O)NCCCCCN(O)C(C)=O)c(=O)c1=O)C(=O)O)C(C)C` [zirconium-89 labelled], the tissue uptake was 0.07 %ID/g (rat, intestine content; intravenous, 3 nmol/kg, 24 h).
`CN1CCN(S(=O)(=O)c2cc([N+](=O)[O-])ccc2N(CCOS(C)(=O)=O)CCOS(C)(=O)=O)CC1`: “EFS delay (T-C)” over 364 days (NSG mice, sample DA PDX; intraperitoneal, 25 mg/kg weekly x3; baseline: vehicle).
For `CN1CC[C@@H](c2c(O)cc(O)c3c(=O)cc(-c4ccc(C(F)(F)F)cc4Cl)oc23)[C@@H]1CO`, “patients with adverse event” read 33.3% (refers to: Nausea; B-cell malignancies; oral, 100 mg, intermittent dosing).
For `CS(=O)(=O)c1ccc(-c2nnc(/C=C/c3nnc(-c4ccc(C#N)cc4)o3)n2-c2ccccc2Cl)nc1`, “normalized enrichment score” read -2.82 (RNA-seq GSEA, refers to: HALLMARK_MYC_TARGETS_V1; organoids, small intestinal, Apc Q1405X, mouse; dose not given, wild-type organoids; baseline: DMSO, direction not given).
`CC1=C(O)C(=O)C=C2C1=CC=C1[C@@]2(C)CC[C@@]2(C)[C@@H]3C[C@](C)(C(=O)O)CC[C@]3(C)CC[C@]12C`: liver histology “decreased” (refers to: inflammation, fibrosis, lipid accumulation; rat, GAN diet-induced MASH, liver; dose not given, 3 weeks daily; baseline: vehicle).
`C[C@@H](O)[C@@H](CO)NC(=O)[C@@H](CCCNC(=N)N)NC(=O)[C@@H]1CCCN1C(=O)[C@@H]1CSSC[C@H](NC(=O)[C@H](Cc2ccccc2)NC(=O)CN2CCN(CC(=O)O)CCN(CC(=O)O)CCN(CC(=O)O)CC2)C(=O)N[C@@H](Cc2ccc(O)cc2)C(=O)N[C@@H](Cc2ccccc2)C(=O)N[C@@H](CCC(N)=O)C(=O)N[C@@H](CC(N)=O)C(=O)N1` [gallium-68 labelled] gave a tissue uptake of 0.25 %ID/g (healthy Wistar rat, stomach; intravenous, 8 MBq, 60 min, individual animals).
`C[C@H]1O[C@H](O[C@H]2CC[C@H](n3ccc(NC(=O)c4ccc(NC(=O)[C@@](C)(N)CO)cc4)nc3=O)O[C@@H]2C)[C@H](O)[C@@H](O)[C@@H]1N(C)C` gave an IC50 of 20.3 ± 5.16 µM (translation; rabbit reticulocyte lysate).
For `C[C@]12CC[C@H](O)C[C@H]1CC[C@@H]1[C@@H]2CC[C@]2(C)[C@@H](c3ccc(=O)oc3)CC[C@]12O`, the tumour volume was 27.5 mm3 and 20 mm3 and 27.3 mm3 and 41.6 mm3 and 39.4 mm3 and 26.6 mm3 and 30.3 mm3 (female nude mouse LCC2 xenograft; 1.0 mg/kg, day 3, tamoxifen-resistant).
`CC[C@@H](C)[C@@H](NC(=O)[C@@H](Cc1ccc(O)cc1)NC(=O)[C@H]1CCCN1C(=O)[C@@H](CCCNC(=N)N)NC(=O)[C@H](N)Cc1c[nH]cn1)C(=O)N[C@H](C)C(=O)N[C@H](Cc1c[nH]cn1)C(=O)N[C@H](CCCNC(=N)N)C(=O)N[C@H](CCCCNC(=O)c1cccc(S(=O)(=O)F)c1)C(=O)N[C@H](Cc1ccc(O)cc1)C(=O)N[C@H](CO)C(=O)N[C@H](Cc1ccccc1)C(N)=O`: “IFN-γ+ CD8+ T cells” 5.27% and 5.63% and 7.05% and 6.16% (ex vivo flow cytometry; MC-38 tumour-bearing mice, spleen; 1.3 mg/kg; baseline: CD8+ T cells).
With `COc1ccc(N2C(=O)N(c3c(C)cccc3Cl)Cc3cnc(Nc4ccc(C5CCN(C)CC5)cc4OC)nc32)nc1` the inhibition was 5% (Macrophage-stimulating protein receptor (MST1R, Homo sapiens, UniProt Q04912); kinase activity, inhibitor; 0.5 µM, kinase RON).
`COc1cc(Nc2ncc(F)c(Nc3ccc4c(n3)NC(=O)C(C)(C)O4)n2)cc(OC)c1OC` has an IC50 of over 10 µM (C-X-C chemokine receptor type 2 (CXCR2, Homo sapiens, UniProt P25025)).
The ethanol intake of `FC(F)(F)c1ccc2c(c1)[C@@H]1CNC[C@H]2C1` is reported as 2 ± 0.2 g/kg (two-bottle choice; Wistar rat, intermittent 20% ethanol access; subcutaneous, 10 mg/kg, 6 h).
`CC(=O)NC1CCN(c2ncnc3[nH]cc(-c4cccc(Cl)c4)c23)CC1`: phospho-MOB1 level “decreased” (Western blot, refers to: MOB1 Thr35 phosphorylation; C57BL/6 mice, liver; intraperitoneal, 20 mg/kg, 1 h; baseline: vehicle).
The normalised absorbance of `NNc1ccccc1` is reported as 0.891 (hydrazine ligation kinetics, absorbance; concentration not given, 30 s, added: 2-formylphenylboronic acid).
`CC[C@H](C)[C@@H]1NC(=O)[C@@H]2CCCN2C(=O)[C@H](CC(C)C)NC(=O)[C@H](CC(C)C)NC(=O)CNC(=O)[C@@H](NC(=O)[C@@H](NC(=O)[C@H](CC(=O)O)NC(=O)CNC(=O)[C@@H](NC(=O)[C@H](C)NC(=O)CNC(=O)[C@H](CCCCN)NC(=O)[C@H](CC(C)C)NC(=O)[C@H](CC(C)C)NC(=O)[C@H](CCCCN)NC(=O)CNC(=O)[C@@H](NC(=O)[C@@H](N)CC(C)C)C(C)C)C(C)C)C(C)C)CSSC[C@@H](C(=O)O)NC1=O`: “log2 fold change” -1.8 (RNA-seq, refers to: novel.411 mRNA; mouse traumatic brain injury, frontal cortex and hippocampus; dose not given; baseline: TBI plus compound vs TBI).
`Cc1nc(Nc2ccc(CC(=O)O)cc2)nc(Nc2ccc(F)c(C(F)(F)F)c2)c1C` — result for mRNA level: “decreased” (refers to: PPARα; C57BL/6J mice, high-fat diet, liver; intraperitoneal, 0.3 mg/kg daily, 60% fat diet 12 weeks, dosed last four; baseline: vehicle).
For `CCCCC1CNC2CCc3ccc(OC)cc3C12.Cl` (racemic), mRNA level read “increased” (RNA sequencing, refers to: complex I subunit genes; SAMP8 mice, hippocampus; intracerebroventricular, 1.0 µg/µL, 24 h; baseline: vehicle).
Under “any SAE incidence”, `CO[C@H]1C[C@@H]2CC[C@@H](C)[C@@](O)(O2)C(=O)C(=O)N2CCCC[C@H]2C(=O)O[C@H]([C@H](C)C[C@@H]2CC[C@@H](OC(=O)NCCOCCOCCOCCOCCOCCOCCOCCOCCC(=O)N3CCc4cc(Cn5nc(-c6ccc7oc(N)nc7c6)c6c(N)ncnc65)ccc4C3)[C@H](OC)C2)C[C@@H](O)[C@H](C)/C=C(\C)[C@@H](O)[C@@H](OC)C(=O)[C@H](C)C[C@H](C)/C=C/C=C/C=C/1C` is recorded as 37.5% (phase 1 dose escalation; advanced solid tumour patients; intravenous, 8 mg weekly, any grade).
For `COc1ccc2c(c1)CC[C@@H]1[C@@H]2CC[C@]2(C)[C@@H](NCCCCCCN3C(=O)C=CC3=O)CC[C@@H]12`, the inhibition was 58% (calcium response, activation phase; N2a, mouse; 1 µM, added: ATP 300 µM).
`C[C@H]1CN(c2n[nH]c3nc(N[C@H]4CC[C@H](NS(=O)(=O)CCC(F)(F)F)CC4)ncc23)CCO1` gave a relative abundance of 1.22 (Far upstream element-binding protein 2 (KHSRP, Homo sapiens, UniProt Q92945); inhibitor, Kinobeads competition profiling; 20 µM; baseline: vehicle).
`CC(C)(C)CC(C)(C)c1ccc(OCCOCC[N+](C)(C)Cc2ccccc2)cc1` — result for fEPSP slope: “increased” (C57BL/6J mouse, male, hippocampal slices, Schaffer collateral-CA1; 50 nM, 60 min; baseline: vehicle).
The median ratio of `O=C(c1ccc(Cl)cc1)N1CCN2C(=O)N(OC(=O)N3CCOc4ccccc43)C(=O)C2C1` (stereo not drawn) is reported as 1.55 (Isoamyl acetate-hydrolyzing esterase 1 homolog (IAH1, Homo sapiens, UniProt Q2TAA2); enzyme activity, inhibitor, MS-based ABPP; SW-620 conditioned medium; 10 µM, 1 h, 37 °C; baseline: compound over DMSO, lower = stronger inhibition).

Repeated from above:
`Cc1nc(Nc2ccc(CC(=O)O)cc2)nc(Nc2ccc(F)c(C(F)(F)F)c2)c1C` — result for mRNA level: “decreased” (refers to: PPARα; C57BL/6J mice, high-fat diet, liver; intraperitoneal, 0.3 mg/kg daily, 60% fat diet 12 weeks, dosed last four; baseline: vehicle).
For `CCCCC1CNC2CCc3ccc(OC)cc3C12.Cl` (racemic), mRNA level read “increased” (RNA sequencing, refers to: complex I subunit genes; SAMP8 mice, hippocampus; intracerebroventricular, 1.0 µg/µL, 24 h; baseline: vehicle).
Under “any SAE incidence”, `CO[C@H]1C[C@@H]2CC[C@@H](C)[C@@](O)(O2)C(=O)C(=O)N2CCCC[C@H]2C(=O)O[C@H]([C@H](C)C[C@@H]2CC[C@@H](OC(=O)NCCOCCOCCOCCOCCOCCOCCOCCOCCC(=O)N3CCc4cc(Cn5nc(-c6ccc7oc(N)nc7c6)c6c(N)ncnc65)ccc4C3)[C@H](OC)C2)C[C@@H](O)[C@H](C)/C=C(\C)[C@@H](O)[C@@H](OC)C(=O)[C@H](C)C[C@H](C)/C=C/C=C/C=C/1C` is recorded as 37.5% (phase 1 dose escalation; advanced solid tumour patients; intravenous, 8 mg weekly, any grade).
For `COc1ccc2c(c1)CC[C@@H]1[C@@H]2CC[C@]2(C)[C@@H](NCCCCCCN3C(=O)C=CC3=O)CC[C@@H]12`, the inhibition was 58% (calcium response, activation phase; N2a, mouse; 1 µM, added: ATP 300 µM).
